Measured values pooled from the literature.
Protocols differ between the studies behind these lines. ± gives the spread as reported.

Compound	test	system	setting	scale	measurement	result
CN(CC#N)C(=O)C[C@H](Nc1nc2ccccc2[nH]1)c1cccc(C(F)(F)F)c1		human	intravenous infusion, 2 mg/kg, 10 mg/mL formulation		AUC(0-t)	15900 ± 8600 ng·h/mL
Cl.[2H]C([2H])([2H])CC(=O)c1cnc(NC(=O)C2CC2)cc1Nc1cccc(-c2ncn(C([2H])([2H])[2H])n2)c1OC		human, fed, plasma	oral, 25 mg, single dose, liquid formulation		AUC(0-t)	1800 ng·h/mL
CCCCC1=NC2(CCCC2)C(=O)N1Cc1ccc(-c2ccccc2S(=O)(=O)Nc2noc(C)c2C)c(COCC)c1		healthy humans, plasma	oral, 200 mg	relative to: fed over fasted	AUC(0-t) ratio	0.87
Cc1cc(C)c(CNC(=O)c2cc(Cl)c3c(c2C)O[C@@](C)([C@H]2CC[C@H](N(C)C)CC2)O3)c(=O)[nH]1	mean	healthy male humans, plasma	oral, 25 mg, day 1, alone, fluconazole group		AUC(0-t)	641 ng·h/mL
NC[C@@]1(CC(=O)O)[C@@H]2CC[C@H]3C[C@@H]2[C@@H]1C3		human, normal renal function, plasma	dose not given, geometric mean		AUC(0-t) unbound	1550 ng·h/mL
Cc1cc(Nc2ncnc3ccc(NC4=NC(C)(CO)CO4)cc23)ccc1Oc1ccn2ncnc2c1 (centres unmarked)		human, plasma	tucatinib, day 10, with: rifampin once daily		AUC(0-t) (geometric mean)	311 ng·h/mL
C=CC(=O)N(C)CCOc1c(N)ncnc1-c1cc(F)cc(NC(=O)c2ccc(C3CC3)cc2F)c1C		human, whole blood	oral, 60 mg, single ascending dose		AUC(0-t)	206 ng·h/mL
C=CCn1c(=O)c2cnc(Nc3ccc(N4CCN(C)CC4)cc3)nc2n1-c1cccc(C(C)(C)O)n1		human	oral, 175 mg twice daily, cycle 1 day 17, with: durvalumab 1500 mg IV	geometric mean	AUC(0-t)	6.67 µM·h
NC1(C(=O)N[C@@H](CCO)c2ccc(Cl)cc2)CCN(c2nc[nH]c3nccc2-3)CC1		human patients, plasma	dose not given, cohort 160/320, cycle 0, geometric mean		AUC(0-t)	2150 ng·h/mL
CO[C@H]1C[C@@H]2CC[C@@H](C)[C@@](O)(O2)C(=O)C(=O)N2CCCC[C@H]2C(=O)O[C@H]([C@H](C)C[C@@H]2CC[C@@H](OC(=O)NCCOCCOCCOCCOCCOCCOCCOCCOCCC(=O)N3CCc4cc(Cn5nc(-c6ccc7oc(N)nc7c6)c6c(N)ncnc65)ccc4C3)[C@H](OC)C2)C[C@@H](O)[C@H](C)/C=C(\C)[C@@H](O)[C@@H](OC)C(=O)[C@H](C)C[C@H](C)/C=C/C=C/C=C/1C		human, plasma	intravenous, 1.6 mg, cycle 1 day 1, arithmetic mean		AUC(0-t)	52.9 ng·h/mL
CC(C)=CCC/C(C)=C/CC/C(C)=C/CC[C@@](C)(O)CCC1=C(C)C(=O)C(C)=C(C)C1=O		healthy human, plasma	oral, 400 mg, with: itraconazole 200 mg		AUC(0-t) geometric mean	10800 ng·h/mL

For quick reference, copied from above:
Compound	test	system	setting	scale	measurement	result
CCCCC1=NC2(CCCC2)C(=O)N1Cc1ccc(-c2ccccc2S(=O)(=O)Nc2noc(C)c2C)c(COCC)c1		healthy humans, plasma	oral, 200 mg	relative to: fed over fasted	AUC(0-t) ratio	0.87
